# Measurements of several laboratories.
# Protocols differ between the studies behind these lines. Several values in a cell are separate wells, animals, samples, runs or records. ± marks the error that the study gave.
# HLA class I histocompatibility antigen, A alpha chain allele A*24:02: HLA class I histocompatibility antigen, A alpha chain, allele A*24:02 (Homo sapiens, UniProt P04439)
# Chain of UniProt O00425 (whole entry, looked up): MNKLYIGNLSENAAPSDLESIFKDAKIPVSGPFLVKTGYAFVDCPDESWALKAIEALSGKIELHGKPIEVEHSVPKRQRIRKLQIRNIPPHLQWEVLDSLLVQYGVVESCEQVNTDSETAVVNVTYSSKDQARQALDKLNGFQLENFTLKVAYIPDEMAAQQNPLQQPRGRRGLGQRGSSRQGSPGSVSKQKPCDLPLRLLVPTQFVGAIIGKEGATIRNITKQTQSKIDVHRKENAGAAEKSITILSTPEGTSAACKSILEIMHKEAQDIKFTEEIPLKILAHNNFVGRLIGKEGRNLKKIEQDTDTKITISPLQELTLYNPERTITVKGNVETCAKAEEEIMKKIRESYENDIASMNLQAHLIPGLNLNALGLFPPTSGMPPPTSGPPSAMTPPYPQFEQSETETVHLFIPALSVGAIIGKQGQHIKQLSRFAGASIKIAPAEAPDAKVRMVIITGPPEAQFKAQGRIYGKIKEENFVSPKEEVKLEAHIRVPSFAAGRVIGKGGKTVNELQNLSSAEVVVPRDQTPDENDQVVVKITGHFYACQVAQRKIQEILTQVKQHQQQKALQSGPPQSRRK
SMILES,tested on,test,system,conditions,scale,quantity,result
CC(C)C[C@H](NC(=O)[C@H](CCCCN)NC(=O)OCC1c2ccccc2-c2ccccc21)C(=O)N[C@H](C(=O)N[C@@H](Cc1ccccc1)C(=O)N[C@@H](Cc1ccccc1)C(=O)N[C@@H](CCCCN)C(=O)NCC(=O)N[C@@H](Cc1ccccc1)C(=O)N[C@@H](C)C(=O)N[C@@H](Cc1c[nH]c2ccccc12)C(=O)N[C@@H](CC(N)=O)C(=O)N[C@H](C(=O)N[C@H]1CSSC[C@@H](C(=O)N[C@@H](Cc2c[nH]cn2)C(=O)N[C@@H](CCCNC(=N)N)C(=O)N[C@@H](CCCNC(=N)N)C(=O)N[C@@H](C)C(=O)N[C@@H](CC(N)=O)C(N)=O)NC(=O)[C@H](C(C)C)NC(=O)[C@H](CCCNC(=N)N)NC(=O)[C@H](C(C)C)NC(=O)CNC(=O)[C@H](CC(N)=O)NC(=O)[C@H](CCCNC(=N)N)NC(=O)[C@H](Cc2ccc(O)cc2)NC(=O)[C@H](C(C)C)NC1=O)C(C)C)C(C)C,,,ICR mouse,"ip, 10 mg/kg",direction not given,lachrymation score,0
CSCC[C@H](NC(=O)[C@@H](N)CCCCN)C(=O)N[C@@H](Cc1c[nH]c2ccccc12)C(=O)NCC(=O)N[C@@H](CCCCN)C(=O)N1CCC[C@H]1C(=O)N[C@@H](CCSC)C(=O)N[C@H](C(=O)N[C@@H](Cc1ccccc1)C(=O)O)[C@@H](C)O,"HLA class I histocompatibility antigen, A alpha chain allele A*24:02",binding,,,,IC50,1.73 µM
[2H]C([2H])([18F])[C@]([2H])(N)C(=O)O,,PET,"athymic nude mice, U-87 MG","dose not given, 15 min post-injection",relative to: tumour over muscle,tumour-to-muscle ratio,1.07 ± 0.18
O=C(Nc1ccccc1)C1CCN(C(=O)Oc2cccnc2)CC1,,,healthy women,"oral, 100 mg, 9 days",,adverse event Asthenia,7.7%
CC[C@H](C)[C@H](NC(=O)[C@H](Cc1ccccc1)NC(=O)[C@H](CCC(=O)O)NC(=O)[C@H](CCCNC(=N)N)NC(=O)[C@H](C)NC(=O)[C@H](C)NC(=O)[C@H](CCC(N)=O)NC(=O)[C@H](CCC(=O)O)NC(=O)[C@H](CCC(=O)O)NC(=O)[C@H](CC(C)C)NC(=O)[C@H](Cc1ccc(O)cc1)NC(=O)[C@H](CO)NC(=O)[C@H](CO)NC(=O)[C@@H](NC(=O)[C@H](CC(=O)O)NC(=O)[C@H](CO)NC(=O)[C@@H](NC(=O)[C@H](Cc1ccccc1)NC(=O)[C@@H](NC(=O)CNC(=O)[C@H](CCC(=O)O)NC(=O)[C@H](C)NC(=O)CCc1c[nH]cn1)[C@@H](C)O)[C@@H](C)O)C(C)C)C(=O)N[C@@H](C)C(=O)N[C@@H](Cc1c[nH]c2ccccc12)C(=O)N[C@@H](CC(C)C)C(=O)N[C@H](C(=O)N[C@@H](CCCNC(=N)N)C(=O)NCC(=O)N[C@@H](CCCNC(=N)N)C(=O)N[C@@H](CCCCNC(=O)COCCOCCNC(=O)COCCOCCNC(=O)CC[C@H](NC(=O)CCCCCCCCCCCCCCCCC(=O)O)C(=O)O)C(=O)NCC(=O)NCC(=O)N[C@@H](CO)C(=O)N[C@@H](CCCCNc1c(NCCCCCN(O)C(=O)CCC(=O)NCCCCCN(O)C(=O)CCC(=O)NCCCCCN(O)C(C)=O)c(=O)c1=O)C(=O)O)C(C)C [zirconium-89 labelled],,,"rat, blood","iv, 3 nmol/kg, 168 h, ex vivo",,tissue uptake,0.03 %ID/g
O=C(Nc1ccc(Cl)cc1)Nc1ccc(Cl)c(Cl)c1,,ultrafiltration,cow milk whey,20 nM nominal in whole milk,,dose fraction in permeate,2.21%
CO[C@H]1C[C@@H]2CC[C@@H](C)[C@@](O)(O2)C(=O)C(=O)N2CCCC[C@H]2C(=O)O[C@H]([C@H](C)C[C@@H]2CC[C@@H](OC(=O)NCCOCCOCCOCCOCCOCCOCCOCCOCCC(=O)N3CCc4cc(Cn5nc(-c6ccc7oc(N)nc7c6)c6c(N)ncnc65)ccc4C3)[C@H](OC)C2)C[C@@H](O)[C@H](C)/C=C(\C)[C@@H](O)[C@@H](OC)C(=O)[C@H](C)C[C@H](C)/C=C/C=C/C=C/1C,,,patients with advanced solid tumours,"intravenous, 16 mg weekly, any grade",,dysgeusia incidence,50%
O=C1Nc2cc3[nH]nc(-c4ccncc4)c3cc2CN1Cc1ccccc1,,CTCAE v4.03,advanced solid tumour patients,"intravenous, 9.6 mg/kg, schedules 1/2",,patients with fatigue,33%
C[C@@H]1OC(=O)NN=C1c1ccc(-c2ccc(F)cc2)c(C(F)(F)F)c1,,"phase I trial, measured: Dyspnoea all grades",human patients,"dose not given, all dose groups",,patients with adverse event,20%
Oc1ccc(CSCc2ccc(O)cc2)cc1,,,ICR mice male,"oral, 1500 mg/kg, day 15, acute toxicity",,body weight,36.9 ± 2.69 g
CC(C)C[C@H](NC(=O)C[C@H](O)[C@H](CC(C)C)NC(=O)[C@H](Cc1c[nH]cn1)NC(=O)CNC(=O)[C@@H](NC(=O)[C@H](C)NC(=O)[C@H](Cc1c[nH]c2ccccc12)NC(=O)[C@H](CCC(N)=O)NC(=O)[C@@H](Cc1ccccc1)NC(=O)CCNC(=O)CCSc1nnc(NCCC(=O)NCCC(=O)NCCCC[C@H](NC(=O)N[C@@H](CCC(=O)O)C(=O)O)C(=O)O)c2c1CCC1C(CC2)C1COC(=O)NCCNC(=O)CC[C@H](C(=O)O)N1CCN(CC(=O)O)CCN(CC(=O)O)CC1)C(C)C)C(N)=O (some centres unmarked) [gallium-68 labelled],,,"athymic NMRI nude mouse, stomach","intravenous, dose not given, 2 h, with: bombesin 480 nmol (GRPR blocking)",,tissue uptake,0.07 %ID/g
CC(C)Nc1ccnc(Nc2cccc(-c3cccnc3)c2)n1,,measured: Glucose,"mouse, blood","intraperitoneal, 5 mg/kg",,blood chemistry,229 mg/dL
CC[C@H](C)[C@H](NC(=O)[C@@H]1CCCN1C(=O)CNC(=O)[C@@H]1CCCN1C(=O)[C@H](Cc1ccc(O)cc1)NC(=O)[C@H](CC(C)C)NC(=O)[C@@H](N)CCCCN)C(=O)N[C@@H](CC(C)C)C(=O)N[C@@H](CCSC)C(=O)O,"HLA class I histocompatibility antigen, A alpha chain allele A*24:02",binding,,,,IC50,11 µM
C1=Cc2nc1cc1ccc([n-]1)c(C1CC1)c1nc(cc3ccc([n-]3)c2C2CC2)C=C1.CC(=O)[O-].[Mn+3],,LC-MS/MS,"Sprague-Dawley rat, plasma","oral gavage, dose not given, 360 min, individual rat Rat2",,plasma concentration,187 ng/mL
CCc1ccc(CC/C=C/c2ccc3c(c2)C(=O)CC3)cc1,,,"Sprague-Dawley rat, female, blood","oral, 450 mg/kg/day, 14 days",,MCV,57.8 fL
C[C@H]1CN(c2n[nH]c3nc(N[C@H]4CC[C@H](NS(=O)(=O)CCC(F)(F)F)CC4)ncc23)CCO1,"Insulin-like growth factor 2 mRNA-binding protein 3 (IGF2BP3, Homo sapiens, UniProt O00425)","inhibitor, Kinobeads competition profiling",,0.16 µM,relative to: vehicle,relative abundance,1.56
Cn1nc(NS(C)(=O)=O)c2c(Cl)ccc(-n3c([C@H](Cc4cc(F)cc(F)c4)NC(=O)Cn4nc(C(F)F)c5c4C(F)(F)[C@@H]4C[C@H]54)nc4nc(OCCC(F)(F)F)ccc4c3=O)c21,,measured: blood triglycerides increased,human,"625 mg, powder in bottle",,drug-related adverse events,0%
c1ccc(C(NCCNC(c2ccccc2)c2ccccc2)c2ccccc2)cc1,"L-type calcium channel, rat, Phenylalkylamine site",binding,,"10 µM, Eurofins selectivity panel",,inhibition,66%
C[C@]1(CO)Cc2ncn(-c3ccc(C#N)c(Cl)c3)c2C(=O)O1,,,"human, Chinese, plasma","80 mg single dose, geometric mean",,Cmax,4.41 µM
CCCCCCCCCCC[C@H](OC1OC[C@H](O)[C@@H](O)[C@@H]1O)[C@H](O)[C@H](O)C[C@@H]1CC(=O)N[C@H](CO)C(=O)N[C@H]([C@H](O)c2ccc(O)cc2)C(=O)N[C@H](CCN)C(=O)NCC(=O)N[C@@H](CC(N)=O)C(=O)N[C@@H](CO)C(=O)N[C@@H]([C@H](O)C(N)=O)C(=O)N1 (some centres unmarked),,LC-MS/MS,rabbit plasma,"200 ng/mL, 3 freeze-thaw cycles",relative to: nominal concentration,"freeze-thaw stability, deviation",-14.3%
C=CC(=O)N1CC[C@H](n2nc(C#Cc3cc(OC)cc(OC)c3)c3c(N)ncnc32)C1,,,patients with advanced solid tumours,"oral, dose not given, Hyperphosphatemia, any grade, QD, with: lanthanum carbonate hydrate",,adverse drug reaction incidence,100%
CC(C)C[C@H](NC(=O)[C@H](C)NC(=O)[C@@H](NC(=O)[C@H](CCCNC(=N)N)NC(=O)[C@H](CC(C)C)NC(=O)[C@H](Cc1c[nH]c2ccccc12)NC(=O)[C@@H]1CCCN1C(=O)[C@@H](N)CCCCN)C(C)C)C(=O)N[C@@H](CS)C(=O)N1CCC[C@H]1C(=O)NCC(=O)O,,,sheep red blood cells,"32 µM, 1 h, 37 °C",,hemolysis,0.45% and 0.79% and 0.64%
Cn1cncc1-c1c(F)cncc1NC(=O)c1c(N)nn2cc(F)cnc12,,,human patients,"oral, 180 mg once daily",,grade ≥3 white cell decrease incidence,0%
COc1cc2c(Oc3ccc4[nH]c(C)cc4c3F)ccnc2cc1OCC1(N)CC1,,,paediatric recurrent refractory sarcoma,10 mg,,grade 3 gingival bleeding,0%
COc1cccc(Oc2ccccc2NC(=O)CNC(=O)c2cccc3ccccc23)c1,,,"esterase-deficient SCID mice, male","oral, 40 mg/kg/day, 14 days, toxicity study",,total protein,5.3 g/dL and 5.4 g/dL
COc1ccc2nc3cc(Cl)ccc3c(Nc3cc(CN4CCCC4)c(O)c(CN4CCCC4)c3)c2n1,,,"mouse, blood","intraperitoneal, 28 mg/kg",,eosinophil count,1.29 10⁹/L
CC[C@H](C)[C@H](NC(=O)[C@H](Cc1ccccc1)NC(=O)[C@H](CCC(=O)O)NC(=O)[C@H](CCCNC(=N)N)NC(=O)[C@H](C)NC(=O)[C@H](C)NC(=O)[C@H](CCC(N)=O)NC(=O)[C@H](CCC(=O)O)NC(=O)[C@H](CCC(=O)O)NC(=O)[C@H](CC(C)C)NC(=O)[C@H](Cc1ccc(O)cc1)NC(=O)[C@H](CO)NC(=O)[C@H](CO)NC(=O)[C@@H](NC(=O)[C@H](CC(=O)O)NC(=O)[C@H](CO)NC(=O)[C@@H](NC(=O)[C@H](Cc1ccccc1)NC(=O)[C@@H](NC(=O)CNC(=O)[C@H](CCC(=O)O)NC(=O)[C@H](C)NC(=O)CCc1cnc[nH]1)[C@@H](C)O)[C@@H](C)O)C(C)C)C(=O)N[C@@H](C)C(=O)N[C@@H](Cc1c[nH]c2ccccc12)C(=O)N[C@@H](CC(C)C)C(=O)N[C@H](C(=O)N[C@@H](CCCNC(=N)N)C(=O)NCC(=O)N[C@@H](CCCNC(=N)N)C(=O)N[C@@H](CCCCNC(=O)COCCOCCNC(=O)COCCOCCNC(=O)CC[C@H](NC(=O)CCCCCCCCCCCCCCCCC(=O)O)C(=O)O)C(=O)NCC(=O)NCC(=O)N[C@@H](CO)C(=O)N[C@@H](CCSC)C(=O)N[C@H](C(=O)N[C@@H](CCCCNc1c(NCCCCCN(O)C(=O)CCC(=O)NCCCCCN(O)C(=O)CCC(=O)NCCCCCN(O)C(C)=O)c(=O)c1=O)C(=O)O)C(C)C)C(C)C [zirconium-89 labelled],,ex vivo gamma counting,"Sprague-Dawley rat, brain","intravenous, dose not given, 24 h",,tissue uptake,0.009 %ID/g
O=S(=O)(Nc1ccccc1)c1ccc(NC(=S)Nc2ccccc2)cc1,,,"female mouse, blood","oral, 80 mg/kg daily, 14 days",,albumin level,3.25 g/dL
O=C(O)CCCOc1ccc(F)cc1-c1cc(-c2ccccc2C(F)(F)F)n(-c2ccccc2)n1,,measured: T-Bil,"Crl:CD(SD) rats, male, blood","iv, 25 µg/kg, 14 days",,blood chemistry,0.12 ± 0.01 mg/dL
CC(C)c1nc(N(C)S(C)(=O)=O)nc(-c2ccc(F)cc2)c1/C=C/[C@@H](O)C[C@@H](O)CC(=O)O,,,healthy human subjects,"oral, dose not given, study CL-0537 safety set",,incidence of Rash,0%
COc1ncnn2ccc(-c3cnc4nc(C)n(Cc5nnc([C@@H](C)F)o5)c4c3)c12,,,human,"oral, dose not given, grade 5",,patients with any adverse reaction,0%
C=CC[N+]1([C@H]2C[C@H]3[C@@H]4CC[C@H]5C[C@H](O)[C@@H](N6CCOCC6)C[C@]5(C)[C@H]4CC[C@]3(C)[C@H]2OC(C)=O)CCCC1,,,"Sprague Dawley rat, plasma","intravenous, dose not given, with: sugammadex 5 mg/kg IV",,Cmax,285 ng/mL
